Measurements from different studies.
Compare with care: the assays were run in different laboratories. ± marks the error that the study gave. Converted amounts (≈) assume the structure as drawn.

Sequences of proteins named here, by UniProt entry; tags and fusion partners are left off.
UniProt P51812, whole entry: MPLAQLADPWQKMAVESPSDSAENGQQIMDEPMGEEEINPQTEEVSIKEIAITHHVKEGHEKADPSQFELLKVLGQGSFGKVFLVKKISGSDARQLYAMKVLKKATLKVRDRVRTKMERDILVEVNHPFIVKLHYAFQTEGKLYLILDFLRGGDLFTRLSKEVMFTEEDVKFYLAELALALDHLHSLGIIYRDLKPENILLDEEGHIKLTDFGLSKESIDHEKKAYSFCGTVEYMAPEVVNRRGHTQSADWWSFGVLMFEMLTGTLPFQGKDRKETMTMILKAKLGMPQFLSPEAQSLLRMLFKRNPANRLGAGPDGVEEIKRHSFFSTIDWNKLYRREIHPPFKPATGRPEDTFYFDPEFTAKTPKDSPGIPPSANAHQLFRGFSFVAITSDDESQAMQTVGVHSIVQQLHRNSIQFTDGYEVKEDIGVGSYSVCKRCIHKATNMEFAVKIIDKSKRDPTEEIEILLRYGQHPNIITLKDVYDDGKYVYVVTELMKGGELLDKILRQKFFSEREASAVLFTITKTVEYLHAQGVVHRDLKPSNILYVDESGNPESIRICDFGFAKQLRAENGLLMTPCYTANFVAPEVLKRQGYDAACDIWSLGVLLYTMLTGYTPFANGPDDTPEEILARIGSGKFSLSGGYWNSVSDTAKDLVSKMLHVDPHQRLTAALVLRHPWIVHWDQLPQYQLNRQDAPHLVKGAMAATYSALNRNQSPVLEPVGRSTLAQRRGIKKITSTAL
UniProt Q9H093, whole entry: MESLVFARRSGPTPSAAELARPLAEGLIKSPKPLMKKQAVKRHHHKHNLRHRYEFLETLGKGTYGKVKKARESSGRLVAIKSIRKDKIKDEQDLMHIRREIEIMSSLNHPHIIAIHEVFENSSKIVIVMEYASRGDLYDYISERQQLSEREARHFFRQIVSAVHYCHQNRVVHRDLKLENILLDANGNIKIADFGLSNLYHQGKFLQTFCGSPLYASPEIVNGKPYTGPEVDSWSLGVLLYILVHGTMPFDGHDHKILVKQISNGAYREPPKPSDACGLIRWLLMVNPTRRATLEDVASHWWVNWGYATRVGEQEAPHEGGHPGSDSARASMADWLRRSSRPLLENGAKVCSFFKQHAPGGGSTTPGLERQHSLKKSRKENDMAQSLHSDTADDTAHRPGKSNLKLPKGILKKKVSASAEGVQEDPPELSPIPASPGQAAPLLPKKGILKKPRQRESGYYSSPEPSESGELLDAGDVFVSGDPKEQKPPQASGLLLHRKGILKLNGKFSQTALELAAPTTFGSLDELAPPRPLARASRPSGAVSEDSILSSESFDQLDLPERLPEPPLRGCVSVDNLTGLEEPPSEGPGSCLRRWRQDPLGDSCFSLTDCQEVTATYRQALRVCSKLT

SMILES | tested on | assay | test system | conditions | how to read | measurement | result
CCCCCCCCCCCCCCCC(=O)NCCCC[C@H](NC(=O)CNC(=O)[C@H](CO)NC(=O)CNC(=O)[C@@H](NC(=O)[C@@H](NC(=O)[C@@H](NC(=O)[C@H](CO)NC(=O)[C@H](CO)NC(=O)[C@H](CCC(N)=O)NC(=O)[C@H](Cc1c[nH]cn1)NC(=O)[C@H](Cc1c[nH]c2ccccc12)NC(=O)[C@H](CC(N)=O)NC(=O)CNC(=O)[C@@H](NC(=O)[C@H](CO)NC(=O)[C@H](CC(=O)O)NC(=O)[C@H](CC(C)C)NC(=O)[C@@H](NC(=O)[C@H](CCCCN)NC(=O)[C@H](CC(N)=O)NC(=O)[C@H](CO)NC(=O)[C@H](CCCNC(=N)N)NC(=O)[C@H](CCCNC(=N)N)NC(=O)[C@@H](NC(=O)[C@H](Cc1c[nH]c2ccccc12)NC(=O)[C@H](CCC(=O)O)NC(=O)[C@H](CCCCN)NC(=O)[C@H](CO)NC(=O)[C@H](CCC(=O)O)NC(=O)[C@H](CCC(=O)O)NC(=O)[C@H](CC(C)C)NC(=O)[C@H](CC(=O)O)NC(=O)[C@H](CO)NC(=O)[C@H](CCCCN)NC(=O)[C@@H](NC(=O)[C@H](CCCCN)NC(=O)[C@H](CC(N)=O)NC(=O)[C@H](CC(C)C)NC(=O)[C@@H](N)C(C)C)[C@@H](C)CC)[C@@H](C)CC)[C@@H](C)CC)[C@@H](C)CC)[C@@H](C)O)[C@@H](C)O)[C@@H](C)CC)C(=O)O |  |  | water |  |  | solubility | 1540 ± 130 µg/mL (≈ 321 µM)
N#Cc1c(-c2ccc(-c3no[n+]([O-])c3C#N)s2)no[n+]1[O-] |  |  | octanol/buffer |  |  | logD | 2.92
C[C@H](Cc1ccc(O)c(O)c1)[C@@H](C)Cc1ccc(O)c(O)c1 |  |  | human skin | 3% w/v solution, 4 h |  | total amount delivered | 13.1 ± 0.34 µg
CCCCCCCCCCCCCCCC(=O)NCCCC[C@H](NC(=O)CCOCCOCCOCCOCCNC(=O)CNC(=O)[C@H](CO)NC(=O)CNC(=O)[C@@H](NC(=O)[C@H](CO)NC(=O)[C@H](CC(=O)O)NC(=O)[C@H](CC(C)C)NC(=O)[C@@H](NC(=O)[C@H](CCCCN)NC(=O)[C@H](CC(N)=O)NC(=O)[C@H](CO)NC(=O)[C@H](CCCNC(=N)N)NC(=O)[C@H](CCCNC(=N)N)NC(=O)[C@@H](NC(=O)[C@H](Cc1c[nH]c2ccccc12)NC(=O)[C@H](CCC(=O)O)NC(=O)[C@H](CCCCN)NC(=O)[C@H](CO)NC(=O)[C@H](CCC(=O)O)NC(=O)[C@H](CCC(=O)O)NC(=O)[C@H](CC(C)C)NC(=O)[C@H](CC(=O)O)NC(=O)[C@H](CO)NC(=O)[C@H](CCCCN)NC(=O)[C@@H](NC(=O)[C@H](CCCCN)NC(=O)[C@H](CC(N)=O)NC(=O)[C@H](CC(C)C)NC(=O)[C@@H](NC(=O)[C@@H](NC(=O)[C@H](CO)NC(=O)[C@@H](NC(=O)[C@H](CC(=O)O)NC(=O)[C@@H](NC(=O)[C@@H]1CCCN1C(=O)[C@H](CC(=O)O)NC(=O)[C@H](CC(C)C)NC(=O)[C@H](C)NC(=O)[C@@H](NC(C)=O)C(C)C)[C@@H](C)CC)[C@@H](C)CC)[C@@H](C)CC)C(C)C)[C@@H](C)CC)[C@@H](C)CC)[C@@H](C)CC)[C@@H](C)CC)C(N)=O |  |  | PBS |  |  | solubility | 3820 ± 180 µg/mL (≈ 763 µM)
C=C(C)[C@@H]1[C@H]2OC(=O)[C@@H]1[C@]1(O)C[C@H]3O[C@]34C(=O)O[C@H]2[C@]14C |  | LC-MS | mouse plasma |  |  | time to disappearance | 180 min
CC[C@H](C)[C@@H]([C@@H](CC(=O)N1CCC[C@H]1[C@H](OC)[C@@H](C)C(=O)NCCc1ccc(OP(=O)([O-])[O-])cc1)OC)N(C)C(=O)[C@@H](NC(=O)[C@H](C(C)C)N(C)C)C(C)C.[Na+].[Na+] |  |  | distilled water | 23 °C |  | solubility | > 236000 µg/mL
CCCSc1nc(N[C@@H]2C[C@H]2c2ccc(F)c(F)c2)c2nnn([C@@H]3C[C@H](OCCO)[C@@H](O)[C@H]3O)c2n1 |  |  | STEMI patients, plasma | 180 mg loading dose, 4 h, added: morphine |  | plasma concentration | 294 ± 551 ng/mL
O=C(Nc1ccccc1)c1cc([N+](=O)[O-])ccc1Cl |  | LC-MS/MS | Sprague-Dawley rat, male, plasma | intravenous, 2.5 mg/kg |  | Tmax | 4.98 min
CCCCCCCCCCCCCCCC(=O)NCCCC[C@H](NC(=O)CNC(=O)[C@H](CO)NC(=O)CNC(=O)[C@H](CCC(N)=O)NC(=O)[C@H](Cc1c[nH]cn1)NC(=O)[C@H](Cc1c[nH]c2ccccc12)NC(=O)[C@H](CC(N)=O)NC(=O)CNC(=O)[C@@H](NC(=O)[C@H](CO)NC(=O)[C@H](CC(=O)O)NC(=O)[C@H](CC(C)C)NC(=O)[C@@H](NC(=O)[C@H](CCCCN)NC(=O)[C@H](CC(N)=O)NC(=O)[C@H](CO)NC(=O)[C@H](CCCNC(=N)N)NC(=O)[C@H](CCCNC(=N)N)NC(=O)[C@@H](NC(=O)[C@H](Cc1c[nH]c2ccccc12)NC(=O)[C@H](CCC(=O)O)NC(=O)[C@H](CCCCN)NC(=O)[C@H](CO)NC(=O)[C@H](CCC(=O)O)NC(=O)[C@H](CCC(=O)O)NC(=O)[C@H](CC(C)C)NC(=O)[C@H](CC(=O)O)NC(=O)[C@H](CCCCN)NC(=O)[C@H](CCCCN)NC(=O)[C@@H](NC(=O)[C@H](CCCCN)NC(=O)[C@H](CC(N)=O)NC(=O)[C@H](CC(C)C)NC(=O)[C@@H](NC(=O)[C@H](CCC(=O)O)NC(=O)[C@H](CO)NC(=O)[C@@H](NC(=O)[C@H](CC(=O)O)NC(=O)[C@@H](NC(=O)[C@@H]1CCCN1C(=O)[C@H](CC(=O)O)NC(=O)[C@H](CC(C)C)NC(=O)[C@H](C)NC(=O)[C@@H](N)C(C)C)[C@@H](C)CC)[C@@H](C)CC)C(C)C)[C@@H](C)CC)[C@@H](C)CC)[C@@H](C)CC)[C@@H](C)CC)C(=O)O |  |  | PBS |  |  | solubility | 4210 ± 60 µg/mL (≈ 780 µM)
Cc1cc(N(CCCl)CCCl)ccc1C(=O)O |  |  | mouse CD2F1 | iv, 20 mg/kg of bendamustine |  | apparent volume of distribution | 562 L/kg
Cc1cn(CC(=O)N(CCNC(=O)CN(CCNC(=O)CN(CCNC(=O)CN(CCNC(=O)CN(CCNC(=O)CN(CCNC(=O)CN(CCNC(=O)CN(CCNC(=O)CN(CCNC(=O)CN(CCNC(=O)COCCOCCNC(=O)COCCOCCNC(=O)[C@H](CNC(=O)[C@H](CNC(=O)[C@H](CNC(=O)[C@H](CNC(=O)COCCOCCNC(=O)CN2CCN(CC(=O)O)CCN(CC(=O)O)CCN(CC(=O)O)CC2)NC(=O)COCCOCCNC(=O)CN2CCN(CC(=O)O)CCN(CC(=O)O)CCN(CC(=O)O)CC2)NC(=O)[C@H](CNC(=O)COCCOCCNC(=O)CN2CCN(CC(=O)O)CCN(CC(=O)O)CCN(CC(=O)O)CC2)NC(=O)COCCOCCNC(=O)CN2CCN(CC(=O)O)CCN(CC(=O)O)CCN(CC(=O)O)CC2)NC(=O)[C@H](CNC(=O)[C@H](CNC(=O)COCCOCCNC(=O)CN2CCN(CC(=O)O)CCN(CC(=O)O)CCN(CC(=O)O)CC2)NC(=O)COCCOCCNC(=O)CN2CCN(CC(=O)O)CCN(CC(=O)O)CCN(CC(=O)O)CC2)NC(=O)[C@H](CNC(=O)COCCOCCNC(=O)CN2CCN(CC(=O)O)CCN(CC(=O)O)CCN(CC(=O)O)CC2)NC(=O)COCCOCCNC(=O)CN2CCN(CC(=O)O)CCN(CC(=O)O)CCN(CC(=O)O)CC2)NC(=O)[C@H](CNC(=O)[C@H](CNC(=O)[C@H](CNC(=O)COCCOCCNC(=O)CN2CCN(CC(=O)O)CCN(CC(=O)O)CCN(CC(=O)O)CC2)NC(=O)COCCOCCNC(=O)CN2CCN(CC(=O)O)CCN(CC(=O)O)CCN(CC(=O)O)CC2)NC(=O)[C@H](CNC(=O)COCCOCCNC(=O)CN2CCN(CC(=O)O)CCN(CC(=O)O)CCN(CC(=O)O)CC2)NC(=O)COCCOCCNC(=O)CN2CCN(CC(=O)O)CCN(CC(=O)O)CCN(CC(=O)O)CC2)NC(=O)[C@H](CNC(=O)[C@H](CNC(=O)COCCOCCNC(=O)CN2CCN(CC(=O)O)CCN(CC(=O)O)CCN(CC(=O)O)CC2)NC(=O)COCCOCCNC(=O)CN2CCN(CC(=O)O)CCN(CC(=O)O)CCN(CC(=O)O)CC2)NC(=O)[C@H](CNC(=O)COCCOCCNC(=O)CN2CCN(CC(=O)O)CCN(CC(=O)O)CCN(CC(=O)O)CC2)NC(=O)COCCOCCNC(=O)CN2CCN(CC(=O)O)CCN(CC(=O)O)CCN(CC(=O)O)CC2)C(=O)Cn2cnc3c(=O)[nH]c(N)nc32)C(=O)Cn2ccc(N)nc2=O)C(=O)Cn2ccc(N)nc2=O)C(=O)Cn2cnc3c(N)ncnc32)C(=O)Cn2cc(C)c(=O)[nH]c2=O)C(=O)Cn2ccc(N)nc2=O)C(=O)Cn2cnc3c(N)ncnc32)C(=O)Cn2cnc3c(=O)[nH]c(N)nc32)C(=O)Cn2ccc(N)nc2=O)CC(=O)NCCN(CC(=O)NCCN(CC(=O)NCCOCCOCC(=O)N[C@@H]2CSSC[C@H](C(N)=O)NC(=O)[C@@H](CCCCN)NC(=O)[C@@H](CO)NC2=O)C(=O)Cn2ccc(N)nc2=O)C(=O)Cn2ccc(N)nc2=O)c(=O)[nH]c1=O |  | RP-HPLC | mouse, urine | dose not given, 3.5 h |  | breakdown fragments | not detected
CC#C/C(=N\OC[C@H]1COCCN1)c1ccc2ncnc(Nc3ccc(OCc4cccc(F)c4)c(Cl)c3)c2c1 | RPS6KA3 (Homo sapiens, UniProt P51812) | kinase activity |  | 10 µM |  | inhibition | -0.9%
CC(C)C[C@H](NC(=O)[C@@H]1C[C@@H](O)CN1C(=O)[C@H](Cc1ccccc1)NC(=O)[C@H](CO)NC(=O)[C@H](C)NC(=O)[C@H](Cc1ccccc1)NC(=O)[C@@H](NC(=O)[C@H](CCC(=O)O)NC(=O)[C@H](Cc1c[nH]cn1)NC(=O)[C@@H](NC(=O)[C@@H](NC(=O)[C@H](CCC(N)=O)NC(=O)[C@H](C)NC(=O)[C@@H](N)CC(=O)O)[C@@H](C)O)C(C)C)C(C)C)C(=O)N[C@@H](CC(=O)O)C(=O)N[C@@H](CO)C(=O)N[C@@H](CC(=O)O)C(=O)NCC(=O)N[C@H]1CSSC[C@@H](C(=O)N[C@@H](Cc2c[nH]c3ccccc23)C(=O)N[C@@H](CC(N)=O)C(=O)N2CCC[C@H]2C(=O)N[C@@H](C)C(=O)N[C@H]2CSSC[C@@H](C(N)=O)NC(=O)[C@H](Cc3ccc(O)cc3)NC(=O)[C@H](Cc3c[nH]cn3)NC(=O)[C@H](CCCCN)NC(=O)CNC2=O)NC1=O |  | RP-HPLC | mouse serum 25% in water | 50 µM, 24 h, 37 °C |  | remaining peptide | 4.15 ± 0.29%
CCN1CCN(Cc2ccc(NC(=O)c3ccc(C)c(/C=C/c4cnc5[nH]ccc5c4OC)c3)cc2C(F)(F)F)CC1 | NUAK2 (Homo sapiens, UniProt Q9H093) | inhibitor |  | 5 µM | baseline: no inhibitor | log2 fold change | -0.166
C[n+]1ccccc1/C=N/O |  |  | human adult | 145 µmol/kg, assumed 5 L blood |  | maximum blood concentration | ~2 mM
CC[C@@H](C(N)=O)N1CCCC1=O |  | LC-MS/MS | rat, paraoxon-induced status epilepticus, whole blood | intramuscular, 50 mg/kg levetiracetam, added: atropine 5 mg/kg |  | Cmax | 22000 ng/mL
